Measured values of several laboratories.
Parts stem from different laboratories: compare values within a part only. Changes are numbered by the printed parent chain.

Set 1 — technique: RNA Bind-n-Seq; form: RNA; sample: in vitro; tested at: 200 nM; notes: whole 134-nt RNA, ends assumed; added: 150 mM LiCl; reference: input library; direction: higher = stronger binding; all molecules: 7-deaza-guanosine replaces G
Target: Ras GTPase-activating protein-binding protein 1, full length (G3BP1, Homo sapiens, UniProt Q13283)
UniProt Q13283, sequence (whole entry, looked up): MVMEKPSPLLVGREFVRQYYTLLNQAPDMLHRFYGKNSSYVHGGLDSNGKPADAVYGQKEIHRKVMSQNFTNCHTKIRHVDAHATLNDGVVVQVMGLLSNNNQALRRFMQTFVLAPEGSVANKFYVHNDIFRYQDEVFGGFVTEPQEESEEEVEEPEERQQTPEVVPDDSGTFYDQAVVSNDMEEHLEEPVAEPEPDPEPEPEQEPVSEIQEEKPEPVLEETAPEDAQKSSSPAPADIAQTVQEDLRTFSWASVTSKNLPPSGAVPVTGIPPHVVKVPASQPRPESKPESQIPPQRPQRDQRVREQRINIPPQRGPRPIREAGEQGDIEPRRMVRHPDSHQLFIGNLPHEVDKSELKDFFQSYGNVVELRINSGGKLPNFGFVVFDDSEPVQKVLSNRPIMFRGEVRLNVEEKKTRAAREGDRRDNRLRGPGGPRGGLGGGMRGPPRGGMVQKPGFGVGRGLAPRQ
Constant ends, left off below: GGGAGUUCUACAGUCCGACGAUC … UGGAAUUCUCGGGUGUCAAGG
Strand	log2 enrichment
GUCCUGUGCUACACAUCGUAUGUACCGAAUCGGGGAAAAAGGGGAAAAAGGAAAAAGGAAAGUAUUAUGUUACGCCGUUCGGAUCUGCAC	0.147
ACCAUGCAGGUGGGCAUCUUUGGGAAGUGGGGCAAGGGGGGGAUAGGGAGGGGGGUAACACUUUGGGAACAGGUGGUCUCAGGUCGUUUC	0.131
UCCUCAAGUCCUGUGCUACACAUCGUAUGUACCGAAUCGGUUUGGUGGUGGAAAGUAUUAUGUUACGCCGUUCGGAUCUGCACUUCCAGC	0.187
GCAGGAAGUAAAAACAAAUGGAAAUGCUUCGGAUAGUGUCAGGGGUGGGGGUUGCUAAGGAAAGGGUGGGAUGGGAGUGGGUAAAGAGUU	0.211
CACAGACAACACGCACCCACACAGACACAGAGGGAAGGGGUUGGGAAGGGGACAGGGUGCACAGCAGGGCGGGGUAGGACCCCAGCCCCU	0.289
UCAAGUCCUGUGCUACACAUCGUAUGUACCGAAUCGGAAAAAGGUUUGGAAAGGAAAGUAUUAUGUUACGCCGUUCGGAUCUGCACUUCC	-0.69
UCAAGUCCUGUGCUACACAUCGUAUGUACCGAAUCGGGAGGGAGGGAAAAAGGGAAAGUAUUAUGUUACGCCGUUCGGAUCUGCACUUCC	-0.0168
AAGUCCUGUGCUACACAUCGUAUGUACCGAAUCGGGUUUGGGUUUGGGAAAAAGGGAAAGUAUUAUGUUACGCCGUUCGGAUCUGCACUU	-0.715
CACAGACAACACGCACCCACACAGACACAGAGGGAAGGGGUUGGGAUGGGGACAGGGUGCACAGCAGGGCGGGCUAGGACCCCAGCCCCU	0.714
CCUCAAGUCCUGUGCUACACAUCGUAUGUACCGAAUCGGCCGGCCGGCCGGGAAAGUAUUAUGUUACGCCGUUCGGAUCUGCACUUCCAG	-0.0583
GCAGGAAGUAAAAACAAAUGGAAAUGCUUCGGAUAGUGGCAGGGGUGGGGGUUGCUAAGGAAAGGGUGGGAUGGGCGUGGGUAAAGAGUU	0.25

Set 2 — technique: universal PBM; form: double-stranded DNA, one strand shown; sample: in vitro; tested at: 600 nM; direction: higher = stronger binding
Target: Sal-like protein 4, full length isoform A (SALL4, Homo sapiens, UniProt Q9UJQ4, residues 1-1053)
UniProt Q9UJQ4, sequence (whole entry, looked up): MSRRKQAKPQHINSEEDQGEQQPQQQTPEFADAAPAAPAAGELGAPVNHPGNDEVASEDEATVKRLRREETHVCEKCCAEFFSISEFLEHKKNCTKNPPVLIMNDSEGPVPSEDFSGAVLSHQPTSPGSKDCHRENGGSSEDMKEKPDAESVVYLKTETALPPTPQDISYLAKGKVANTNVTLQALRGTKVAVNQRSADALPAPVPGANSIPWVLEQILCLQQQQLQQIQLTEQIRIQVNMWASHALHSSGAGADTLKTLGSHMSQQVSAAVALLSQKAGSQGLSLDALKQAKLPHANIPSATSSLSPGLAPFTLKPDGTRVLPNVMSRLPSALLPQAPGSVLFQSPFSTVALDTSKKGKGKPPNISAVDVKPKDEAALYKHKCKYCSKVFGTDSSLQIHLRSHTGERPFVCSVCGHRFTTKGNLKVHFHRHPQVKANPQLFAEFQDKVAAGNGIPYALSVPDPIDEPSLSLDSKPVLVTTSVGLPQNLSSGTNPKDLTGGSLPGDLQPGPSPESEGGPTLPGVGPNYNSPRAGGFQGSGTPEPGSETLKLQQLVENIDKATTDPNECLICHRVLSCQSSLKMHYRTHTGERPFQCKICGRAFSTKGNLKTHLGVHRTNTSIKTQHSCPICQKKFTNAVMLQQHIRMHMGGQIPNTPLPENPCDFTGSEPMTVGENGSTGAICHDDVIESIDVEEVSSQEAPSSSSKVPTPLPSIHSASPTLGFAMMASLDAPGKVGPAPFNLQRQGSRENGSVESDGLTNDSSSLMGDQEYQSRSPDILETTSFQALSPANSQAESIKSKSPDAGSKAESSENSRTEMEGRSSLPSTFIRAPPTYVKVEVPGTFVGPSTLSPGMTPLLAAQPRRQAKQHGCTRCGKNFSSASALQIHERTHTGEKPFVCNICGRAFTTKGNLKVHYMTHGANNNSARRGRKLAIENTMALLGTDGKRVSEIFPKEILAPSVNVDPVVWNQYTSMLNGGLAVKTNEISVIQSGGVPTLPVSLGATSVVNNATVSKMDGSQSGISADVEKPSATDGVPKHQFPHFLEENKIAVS
Notes: 8-mer, flanks averaged, mean of replicates
Strand	E-score
TCAAATGA	0.157
ACTTCTGA	0.0914
AAGCAGGG	-0.15
CAAACCTC	-0.186
AGCGACAG	-0.0967
ACGGCTGG	-0.327
CCAGCTGG	-0.337
ACTATAGG	0.184
ATCAAAAA	0.321
AGGGAACA	0.0198
AACACTTG	-0.09
ACCGGGCT	-0.231
CCCGCGGG	-0.389
AGGCTCCC	-0.331
ATGCGGTA	0.0252
CATTATGC	0.229

Set 3 — technique: RNA Bind-n-Seq; form: RNA; sample: in vitro; tested at: 365 nM; reference: no-protein control; direction: higher = stronger binding
Target: RNA binding protein fox-1 homolog 2, RRM domain, GST-SBP tag (RBFOX2, Homo sapiens, UniProt O43251-10, residues 100-194)
Notes: natural RNA segment, single round, ends assumed
Constant ends, left off below: GGGAGUUCUACAGUCCGACGAUC … UGGAAUUCUCGGGUGCCAA
Construct (chain): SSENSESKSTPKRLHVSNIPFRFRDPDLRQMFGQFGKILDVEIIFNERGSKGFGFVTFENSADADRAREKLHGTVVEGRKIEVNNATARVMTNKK
Strand	RBNS enrichment (R)
CCCAGCAUGUACUCACUGUGGGCAGAUGCACCAAUACAUGGUAAUCCUCUUACUCAUUUUAAGACGUAGGAAACUCAAUAUUCUUCUCUAACCAUAUACGAUAGGGCUCU	8.33
UUAAUUUCUUUUGUUGCAUAACAAAAUAAAAGAAUUAUGUAUUUUUAACUAAGGAGAGACAUACUGGUAUAUCAUUUUACUACAAGCUACAGAUAACCUGUUGAGCUUGU	0.479
GUGUCUGCCCUUGCCACCUCCCAGCCUGCUGCAUGCAUGUGCAGCAUGGGCUUUUGCUCCAUCACCGCAAAGUUCUGCAGGGGCCCUGGGCAGUGCUGGCCUGUCUGACG	6.46
UGGCUCCUUAAGAAGCAAAAGUAGGUUAAAUUUUAUACUUCACUGACUAGGGUCUUCUCUCUCCCCUGUUCUGAAUGGAGUAAAAGUCUGAUGCCAAGACAAAUAUUGGG	0.758
AAGGAUGAAAUCUCAGAACACAUGUCAGCUGCUUCUCAGGAAAUCUUUUCUUUGGACAAUUCACUUUAGAGUCUUUAAACGGGUCUCUCGUGGGGAGGAUAGAUGUGCUC	0.408
AACCUUCGGUCAGGGAUGUCGUUGGGGAAGUGACUUCAAAAGUAUUCAAAAUUUGACAUGCUGUUUGUUUAGUCACUACAGUGCCCUCAAAGGGCAGACAUUGCAGCCUU	0.327
AAUCUGAUUCCAGUUAAGCUAUAAACUUGUGGGAUUUUCUUGUAGCCCUAUAGUUCUGUGACUUCAUUUGCUAUACGCUUUAAAUGUGUUGAGCAGCCUAUGAACCUAAA	0.293
AGCUGGAUUUUCAAAAGCUUCAAAGUCUUGGUCUGUGAGUCACUCUUCAGUUUGGGAGCUGGGUCUGUGGCUUUGAUCAGAAGGUACUUUCAAAAGAGGGCUUUCCAGGG	0.517
CUAGACUUUUCUUUUUAAGGAAGUGCUGUUUUUUUUUGAGGGUUUUCAAAACAUUUUGAAAAGCAUUUACUUUUUUGACCACGAGCCAUGAGUUUUCAAAAAAAUCGGGG	0.444
AUCAUUUAAAUAUAAUUCAGCAUAUGGGAAGUAACAUUGCACUAAUAUGGAAAUCACUGCCAGAGACAGUCUAUUUUCUUUUAAUUUGUUACUACUUAGUCACAAACCCC	0.765
GAGAGAUGGCACACCAGAUGCUUUUGUGAGAAAGGGAUGGUGGAGUGAGAGCCUUUGCCUUUAGGGGUGUGUAUUCACAUAGUCCUCAGGGCUCAGUCUUUUGAGGUAAG	0.246
UACAAGAGCAGAAUAGUACUUAAAAUCCAAACUGCCGCCCAGAUGGGCUUGUUCUUCAUGCCUAACUUAAUAAUUUUUAAGAGAUUAAAGUGCCAGAUGGAGUUUAAAUA	0.314

Set 4 — target: CCNE1, cyclin fold, Cln2 fusion (human); technique: yeast growth competition, sequencing; sample: yeast; notes: strong parent motif; reference: not given; direction: higher = stronger binding
Starting sequence: BRCA2 docking peptide (human); PSIKRNLLNEFDR; partner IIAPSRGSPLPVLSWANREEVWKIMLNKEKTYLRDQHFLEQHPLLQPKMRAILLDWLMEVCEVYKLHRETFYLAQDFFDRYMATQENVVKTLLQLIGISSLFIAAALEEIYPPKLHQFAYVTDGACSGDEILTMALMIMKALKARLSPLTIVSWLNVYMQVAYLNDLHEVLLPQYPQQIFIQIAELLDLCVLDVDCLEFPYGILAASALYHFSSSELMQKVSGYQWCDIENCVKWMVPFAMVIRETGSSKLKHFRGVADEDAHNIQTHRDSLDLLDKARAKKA
Change	normalised enrichment score
P1M	1.03
N9G	1.34
E10Q	0.816
P1I	1.42
E10S	0.607
I3Q	-0.0291
R5F	-0.732
N9Q	1.92
R5Y	0.348
K4P	0.648
K4Q	-0.106
E10C	0.763
E10V	0.872
R13W	3.1
S2V	1.08
P1T	1.5
E10Y	1.87
P1R	2.2
F11V	1.05
I3T	0.929
D12M	1.53
P1C	1.93
E10G	0.75
S2A	1.08
P1Q	2.19

Set 5 — technique: protein binding microarray; form: double-stranded DNA, one strand shown; sample: in vitro; tested at: not given; reference: not given; direction: higher = stronger binding
Target: Histone acetyltransferase KAT6A, both winged helices, GST fusion (KAT6A, Homo sapiens, UniProt Q92794, residues 1-181)
Notes: 8-mer, flanks averaged, mean of 2 arrays, mostly near background
Construct (chain): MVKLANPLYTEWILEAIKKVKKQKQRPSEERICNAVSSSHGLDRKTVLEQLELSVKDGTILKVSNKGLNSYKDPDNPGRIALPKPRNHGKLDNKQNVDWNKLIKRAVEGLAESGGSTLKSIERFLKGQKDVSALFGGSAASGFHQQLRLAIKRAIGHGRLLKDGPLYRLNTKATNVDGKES
Strand	E-score
CACGGCCA	0.128
CAAGCTCC	-0.094
GACTACCA	-0.0721
TCCGGACA	0.0822
CCGTGCGA	0.204
GCGTCGTA	0.202
AGTTTATG	-0.137
CAATCGGC	0.111
AATAGGTA	-0.258
CGAAATAC	-0.00868
AGGCGACA	0.04
AATCGCCC	-0.0407
CAGGGCCC	-0.102
AAGTAGCC	-0.171
GAGGGCTA	-0.114
AGGAGTCC	-0.0525

Set 6 — technique: protein-binding microarray; form: double-stranded DNA, one strand shown; sample: in vitro; tested at: 2540 nM top; notes: 60-bp whole probe; added: salmon DNA 0.4 mg/ml; reference: random background probes; direction: higher = stronger binding; constant ends, left off below: GCCTAGCAC … GTCTTGATTCGCTTGACGCTGCTG
Target: Interferon regulatory factor 3, full length, phosphomimetic (IRF3, Homo sapiens, UniProt Q14653, residues 1-427, S386D/S396D/S398D/S402D/T404D/S405D)
Target sequence (chain): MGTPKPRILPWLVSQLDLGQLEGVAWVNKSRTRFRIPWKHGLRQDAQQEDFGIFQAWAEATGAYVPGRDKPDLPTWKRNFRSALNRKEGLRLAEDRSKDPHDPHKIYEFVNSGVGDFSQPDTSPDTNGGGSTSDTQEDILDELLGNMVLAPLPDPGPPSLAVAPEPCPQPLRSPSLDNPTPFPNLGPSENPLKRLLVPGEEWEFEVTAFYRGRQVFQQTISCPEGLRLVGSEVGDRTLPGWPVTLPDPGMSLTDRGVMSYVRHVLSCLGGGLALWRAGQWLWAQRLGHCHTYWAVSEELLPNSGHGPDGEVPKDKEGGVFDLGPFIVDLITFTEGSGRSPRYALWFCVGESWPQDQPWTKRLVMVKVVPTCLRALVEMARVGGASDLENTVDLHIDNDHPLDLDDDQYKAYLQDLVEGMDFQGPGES
Strand	fitted relative affinity
TTCGGACTGCTTCTCCTTTAGTGCTAG	0.177 z-score
GACGGTATCGACTTTCGGGAGGTGCTA	1.32 z-score
TTAGGACTGCTTCTGCTTTAGTGCTAG	-0.499 z-score
TTAGAACTGGGGAATGGATTAGTGCTA	-0.617 z-score
ATGAAAATCTCAATGGGTTAGTGCTAG	-0.479 z-score
GACCGTTTCGACACTGGGGACGTGCTA	3.3 z-score
GACGATTCCAGCTTCGAGACGTGCTAG	0.591 z-score
GACGGTTTCCTTCTCGTGACGTGCTAG	10.4 z-score
TCACCATTATATTTTAAACTGTGCTAG	0.972 z-score
GTAGATTTCGGGACTGGATTAGTGCTA	1.55 z-score
TTTTGCTTTCTTTTATGCTCGTGCTAG	4.23 z-score
TTAGATCTCCTTCTCCTTTAGTGCTAG	2.65 z-score
GACGGACTGGACTATTGGGACGTGCTA	-0.587 z-score
GACGGTATCGGGTATCCGGACGTGCTA	2.21 z-score
ACATCCAAATCCACCATTCAGTGCTAG	1.15 z-score
TTAGGTATCCTACTGCTTTTGTGCTAG	2.21 z-score
TTACATATCAGACTGGATTAGTGCTAG	0.798 z-score
TTAGGACTGCTACTGATTTAGTGCTAG	-0.518 z-score
TTAGGTTTCCTTCTCCTTGAGTGCTAG	10.4 z-score
TTAGGACTGGGTTTCGCTTAGTGCTAG	1.11 z-score

A few entries again (set 6):
Strand	fitted relative affinity
TCACCATTATATTTTAAACTGTGCTAG	0.972 z-score
TTAGAACTGGGGAATGGATTAGTGCTA	-0.617 z-score
TTAGGACTGCTACTGATTTAGTGCTAG	-0.518 z-score
TTAGATCTCCTTCTCCTTTAGTGCTAG	2.65 z-score
TTACATATCAGACTGGATTAGTGCTAG	0.798 z-score
TTAGGTTTCCTTCTCCTTGAGTGCTAG	10.4 z-score
GACCGTTTCGACACTGGGGACGTGCTA	3.3 z-score
GTAGATTTCGGGACTGGATTAGTGCTA	1.55 z-score
TTCGGACTGCTTCTCCTTTAGTGCTAG	0.177 z-score
